Published values gathered from unrelated publications.
Protocols differ between the studies behind these lines. Several values in a cell are separate wells, animals, samples, runs or records. ± gives the spread as reported.

Nc1ncnc2c1ncn2[C@@H]1O[C@@H]2COP(=O)(O)O[C@H]3[C@@H](O)[C@H](n4cnc5c(=O)[nH]cnc54)O[C@@H]3COP(=O)(O)O[C@H]2[C@H]1O  viability (HFF-1; 10 µg/mL): 101%
CCOc1cccc(-c2nnc(Cn3c(SCC)nc4ccccc43)o2)c1O  viability (neutrophils; fresh heparinized human blood; 200 µg/mL, 30 min): 79.2 ± 0.5%
C[C@@H]1O[C@@H](OC[C@H]2O[C@@H](Oc3c(-c4ccc(O)c(O)c4)oc4cc(O)cc(O)c4c3=O)[C@H](O)[C@@H](O)[C@@H]2O)[C@H](O)[C@H](O)[C@H]1O  viability (Caco-2; CCK-8; 0.625 µM, 24 h): 87%
CCSc1nc2ccccc2n1Cc1nnc(-c2cccc(O)c2)o1  viability (neutrophils; fresh heparinized human blood; 200 µg/mL, 30 min): 82.2 ± 1.1%
Oc1ccc(C2(c3ccc(O)cc3)c3ccccc3-c3ccccc32)cc1  viability (HepG2 spheroids; annexin V/PI flow cytometry; 10 µM, 96 h): 19.2 ± 13.6%
CCSc1nc2ccccc2n1Cc1nnc(-c2ccc([N+](=O)[O-])cc2)o1  viability (neutrophils; fresh heparinized human blood; 200 µg/mL, 30 min): 13.1 ± 7.3%
COCCOCCOCCNC(=O)c1sc2nc(C)cc(C)c2c1N  viability (MDA-MB-231; MTT; 100 µM, 72 h): 69 ± 12%
CCSc1nc2ccccc2n1Cc1nnc(-c2cccc(O)c2O)o1  viability (neutrophils; fresh heparinized human blood; 200 µg/mL, 30 min): 88.6 ± 7.1%
Cc1cc(-c2ccccc2)nc2sc(C(=O)Nc3ccccc3)c(N)c12  viability (MDA-MB-231; MTT; 100 µM, 72 h): 43 ± 2%
CCSc1nc2ccccc2n1Cc1nnc(-c2ccc(F)c(OC)c2)o1  viability (neutrophils; fresh heparinized human blood; 200 µg/mL, 30 min): 56.3 ± 3.1%
O=c1c(O[C@@H]2O[C@H](CO)[C@H](O)[C@H](O)[C@H]2O)c(-c2ccc(O)c(O)c2)oc2cc(O)cc(O)c12  viability (Caco-2; CCK-8; 20 µM, 24 h): 85.2%
COC(=O)c1ccc(NC(=O)CSc2nc(C)cc(-c3ccccc3)c2C#N)cc1  viability (MDA-MB-231; MTT; 100 µM, 72 h): 40 ± 9%
O=c1cc(-c2ccc(O)cc2)oc2c([C@@H]3O[C@H](CO)[C@@H](O)[C@H](O)[C@H]3O)c(O)cc(O)c12  viability (Caco-2; CCK-8; 2.5 µM, 24 h): 117%
CCSc1nc2ccccc2n1Cc1nnc(-c2ccccc2OC)o1  viability (neutrophils; fresh heparinized human blood; 200 µg/mL, 30 min): 74.1 ± 4.3%
COc1cc(CNC(=O)c2sc3nc(C)cc(C)c3c2N)cc(OC)c1OC  viability (MDA-MB-231; MTT; 100 µM, 72 h): 27 ± 3%
CCSc1nc2ccccc2n1Cc1nnc(-c2ccc(N(CC)CC)cc2)o1  viability (neutrophils; fresh heparinized human blood; 200 µg/mL, 30 min): 21.8 ± 9.1%
COC(=O)CNC(=O)CCSc1nc(C)cc(C)c1C#N  viability (MDA-MB-231; MTT; 100 µM, 72 h): 71 ± 7%
CC[C@H](C)[C@H](NC(=O)[C@H](CC(C)C)NC(=O)[C@H](CCCNC(=N)N)NC(=O)[C@@H](N)CCCNC(=N)N)C(=O)N[C@@H](CCCNC(=N)N)C(=O)N[C@@H](CCCCN)C(=O)N[C@@H](CC(C)C)C(=O)N[C@@H](CCCCN)C(=O)NCC(=O)N[C@@H](CC(C)C)C(=O)N[C@@H](CCCCN)C(=O)N[C@@H](CCCCN)C(=O)N[C@@H](Cc1ccc(O)cc1)C(=O)N[C@@H](CC(C)C)C(=O)N[C@@H](Cc1ccc(O)cc1)C(=O)N[C@@H](Cc1ccccc1)C(=O)N[C@@H](CCCCN)C(=O)N[C@@H](CC(C)C)C(=O)N[C@@H](CCC(N)=O)C(=O)N[C@@H](CC(C)C)C(=O)N[C@@H](CC(C)C)C(=O)N[C@@H](CCCCN)C(=O)N[C@@H](CCCCN)C(N)=O  viability (HCT-116; MTT; 32 µM, 48 h): ~85%
Cc1cccc(NC(=O)CSc2nc(C)cc(-c3ccccc3)c2C#N)n1  viability (MDA-MB-231; MTT; 100 µM, 72 h): 17 ± 2%
CCSc1nc2ccccc2n1Cc1nnc(-c2ccc(C)o2)o1  viability (neutrophils; fresh heparinized human blood; 200 µg/mL, 30 min): 73.1 ± 5.2%
Cc1cc(C)c2c(N)c(C(=O)NCc3ccccc3)sc2n1  viability (MDA-MB-231; MTT; 100 µM, 72 h): 65 ± 3%
CC(C)c1ccc(C(=O)c2c(N)c(C(N)=O)c3ccccn23)cc1  viability (THP-1-derived macrophages; 10 µM, 48 h): 94.7% and 96.4% and 96.7%
Cc1cccc(NC(=O)c2sc3nc(C)cc(C(F)(F)F)c3c2N)n1  viability (MDA-MB-231; MTT; 100 µM, 72 h): 36 ± 3%
CC(C)C[C@@H](NC(=O)CNC(=O)[C@@H](CCCCN)NC(=O)[C@@H](CC(C)C)NC(=O)[C@@H](CCCCN)NC(=O)[C@@H](CCCNC(=N)N)NC(=O)[C@@H](CC(C)C)NC(=O)[C@@H](CC(C)C)NC(=O)[C@@H](CCCNC(=N)N)NC(=O)[C@H](N)CCCNC(=N)N)C(=O)N[C@H](CCCCN)C(=O)N[C@H](CCCCN)C(=O)N[C@H](Cc1ccc(O)cc1)C(=O)N[C@H](CC(C)C)C(=O)N[C@H](Cc1ccc(O)cc1)C(=O)N[C@H](Cc1ccccc1)C(=O)N[C@H](CCCCN)C(=O)N[C@H](CC(C)C)C(=O)N[C@H](CCC(N)=O)C(=O)N[C@H](CC(C)C)C(=O)N[C@H](CC(C)C)C(=O)N[C@H](CCCCN)C(=O)N[C@H](CCCCN)C(N)=O  viability (HCT-116; MTT; 64 µM, 48 h): ~55%

Some of these lines once more:
CC(C)c1ccc(C(=O)c2c(N)c(C(N)=O)c3ccccn23)cc1  viability (THP-1-derived macrophages; 10 µM, 48 h): 94.7% and 96.4% and 96.7%
O=c1cc(-c2ccc(O)cc2)oc2c([C@@H]3O[C@H](CO)[C@@H](O)[C@H](O)[C@H]3O)c(O)cc(O)c12  viability (Caco-2; CCK-8; 2.5 µM, 24 h): 117%
